Measurements gathered from unrelated publications.
Compare with care: the assays were run in different laboratories. Values joined by “and” are separate records of one study, mostly repeats; a detail may differ. Numbers after ± are the reported error.

For `COc1cc(/C=C/C(=O)N2CCC=CC2=O)cc(OC)c1OC`, the mRNA level was 74.2 ± 12.6% (MDA-MB-468 cells; quantitative RT-PCR, measured: cyclin D1; 30 µM, 6 h; baseline: time zero).
`CC/C(=N\NC(=O)NCc1cccc(O)c1)c1ccc(O)c(C)c1O` gave a protein level of 1.06 ± 0.43 (SK-OV-3; Western blot, measured: TAZ; 1 µM, 1 h, 3D culture, gellan gum, unit not given; baseline: β-actin).
With `OCc1ccc(-c2ccc(-c3ccc(CO)s3)o2)s1` the IC50 was 120 nM (RBE; cell viability, CellTiter-Glo).
For `NC(=O)NOCCCCCCCCCCCCCCCCCCCC[P+](c1ccccc1)(c1ccccc1)c1ccccc1.O=C([O-])C(F)(F)F`, the cell confluence was 34 ± 2.7% (HCT-116; cell growth, live-cell imaging; 0.25 µM, control at 90% confluence).
`O=C(/C=C/C=C/C=C/C1CCCCC1)NC1=C[C@@](O)(/C=C/C=C/C=C/C(=O)NC2=C(O)CCC2=O)[C@@H]2O[C@@H]2C1=O` gave a GI50 of > 30000 nM (NCI-H1373; cell growth, CellTiter-Glo; 78 h).
For `Cc1ccccc1-n1nc(C)c(C(=O)Nc2ccc3ccccc3n2)c1C`, the inhibition was > 70% (Wnt-HEK293; Wnt/β-catenin signalling, inhibitor, luciferase reporter; 1 µM).
For `CSc1cccc(Nc2ncc3cc(-c4c(Cl)cccc4Cl)c(=O)n(C)c3n2)c1`, the beat rate was 94.6% (hiPSC-derived cardiomyocytes (iCell); impedance (xCELLigence Cardio); concentration not given, 2 h; baseline: control).
`O=c1cc(-c2ccc(O)cc2)oc2c([C@@H]3OC[C@H](O)[C@H](O)[C@H]3O)c(O)c([C@@H]3O[C@H](CO)[C@@H](O)[C@H](O)[C@H]3O)c(O)c12` — result for autophagosome number: “increased” (neonatal mouse cardiomyocytes; transmission electron microscopy; dose not given, together with: angiotensin II 80 ng/mL; baseline: angiotensin II alone).
The viability of `Nc1cccc2c1C(=O)N(C1CCC(=O)NC1=O)C2=O` (stereo not drawn) is reported as 33% (MM1.S; XTT; 0.8 µM; baseline: untreated).
With `Cc1ccccc1Cn1nc(-c2ccc(CO)o2)c2ccccc21` the IC50 was 1370 nM (RBE; cell viability, CellTiter-Glo).
For `Cc1cc(Nc2ncc(Cl)c(Nc3ccccc3S(=O)(=O)C(C)C)n2)c(OC(C)C)cc1C1CCNCC1`, “log2 fold change” read -3.53 (CLB-GE; phosphoproteomics LC-MS/MS, measured: GAB2 phosphorylation; 200 nM, 60 min; baseline: untreated).
`COc1cc2c(Oc3ccc(NC(=O)C4(C(=O)Nc5ccc(F)cc5)CC4)cc3F)ccnc2cc1OCCCN1CCOCC1` gave a beat rate of 69.2% (hiPSC-derived cardiomyocytes (iCell); impedance (xCELLigence Cardio); concentration not given, 2 h; baseline: control).
The IC50 of `Cc1cnc(Cn2nc(-c3ccc(CO)o3)c3ccccc32)s1` is reported as 1030 nM (RBE; cell viability, CellTiter-Glo).
For `C=CC1=C(C)c2cc3[n-]c(cc4nc(cc5[n-]c(cc1n2)c(C)c5C=C)C(C)=C4CCC(=O)O)c(CCC(=O)O)c3C.[Zn+2]`, the fold change was 3.65 (SH-SY5Y; RNA-seq, measured: EDN1 mRNA; 5 µM, 5 h; baseline: untreated cells).
With `NC(=O)NOCCCCCCCCCCCC[P+](c1ccccc1)(c1ccccc1)c1ccccc1.O=C([O-])C(F)(F)F` the cell confluence was 91 ± 4.68% (HCT-116; cell growth, live-cell imaging; 0.1 µM, control at 90% confluence).
`CCCCc1oc2ccc(NS(C)(=O)=O)cc2c1C(=O)c1ccc(OCCCN(CCCC)CCCC)cc1` gave a fold change of 4.9 fold (human embryonic stem cell aggregates; mRNA level, microarray, measured: PDGFRA; 0.5 µM, 120 h; baseline: untreated, down-regulated).
For `NC(=O)NOCCCCCCCCCC[P+](c1ccccc1)(c1ccccc1)c1ccccc1.O=C([O-])C(F)(F)F`, the cell confluence was 64.3% (HCT-116; cell growth, live-cell imaging; 3 µM, control at 90% confluence).
`CCn1cc(-c2cc(Cn3ccnc3)cc3c2CCN([C@H](c2cc(OC)ccn2)C2CC2)C3=O)c(C(F)(F)F)n1` gave an EC50 of 4500 nM (SU-DHL10; cell growth, inhibitor; 120 h).
Under “TNFRSF10A mRNA level”, `CCn1c2ccc(CNCCOCCOCCOCCC(=O)NCCOc3ccc(CCc4nc5cc(-c6c(C)noc6C)ccc5n4CCN4CCOCC4)cc3F)cc2c2ccc(-c3cc(C)cs3)cc21` is recorded as > 2 fold (NCI-H1299 expressing p53 Y220C; RT-qPCR; 3 µM, 24 h; baseline: DMSO).
`CCN(Cc1cccc(F)c1F)c1ccc(CO)c(Cl)c1` gave an IC50 of 130 nM (RBE; cell viability, CellTiter-Glo).
`COC(=O)[C@]12CCC(C)(C)C[C@H]1[C@H]1C(=O)C=C3[C@@]4(C)C=C(C#N)C(=O)C(C)(C)[C@@H]4CC[C@@]3(C)[C@]1(C)CC2`: “representative mode point of departure” 0.155 µM (HepG2; phospholipidosis; 24 h).
`Cn1cc(Nc2nccc(-c3ccc4c(c3)CN(C3COC3)CC[C@H]4NC(=O)c3cn(C(C)(C)C)nn3)n2)cn1` — result for “number of downregulated genes”: 122 (human B cells; 100 nM, 64 h, stimulation-upregulated genes, together with: CD40L, anti-IgM, IL-4).
For `Cc1cc(C)n(-c2nc(-c3ccc(Cl)cc3)c3c(NC(=O)c4ccccc4)nnc-3[nH]2)n1`, the cell growth was 107% (NCI-H322M; SRB; 10 µM, NCI60 single-dose screen; baseline: untreated).
For `C[C@H](CCC(=O)NCCS(=O)(=O)O)[C@H]1CC[C@H]2[C@@H]3CC[C@@H]4C[C@H](O)CC[C@]4(C)[C@H]3CC[C@]12C`, the proliferation increase was 60% (human PKD renal epithelial cells; cell confluence; 20 µM, 48 h; baseline: untreated).
For `COCCOCCOCCOc1ccc(C#Cc2cc(CN3CCN(Cc4cc(C#Cc5ccc(OCCOCCOCCOC)cc5)cc(C(=O)O)n4)CCN(Cc4cc(SC[C@H](N)C(=O)NC[C@H]5CC[C@H](C(=O)N[C@@H](Cc6ccc7ccccc7c6)C(=O)NCCCC[C@H](NC(=O)N[C@@H](CCC(=O)O)C(=O)O)C(=O)O)CC5)cc(C(=O)O)n4)CC3)nc(C(=O)O)c2)cc1` [yttrium-86 labelled], the cell-bound radioactivity was 9.9 ± 0.88% (PC-3 PiP (PSMA-positive); concentration not given).
`CCc1cnc(N2CCC(c3nc(COc4ccc(-n5cnnn5)cc4)cs3)CC2)nc1` — result for “log2 fold change”: -0.172 (HEK293T; RNA-seq, measured: HSPH1 mRNA; 10 µM, 6 h; baseline: vehicle).
The beat amplitude of `CN(C)CC(=O)N1CCC(c2ccc(NC(=O)c3nc(C#N)c[nH]3)c(C3=CCCCC3)c2)CC1` is reported as 105% (hiPSC-derived cardiomyocytes (iCell); impedance (xCELLigence Cardio); concentration not given, 2 h; baseline: control).
The viability loss of `O=C1N(Cc2ccccc2Cl)c2ccccc2C12NN=C(c1ccccc1)S2` (stereo not drawn) is reported as 80 to 90% (H2373 and H2461 mesothelioma; MTT; 10 µM, 24 h).
The IFN-gamma production of `Cc1cccc(-c2[nH]c(CNc3ccccc3F)nc2-c2ccc3ncnn3c2)n1` is reported as 1.13% and 1.08% and 1.21% and 1.42% (CD8+ T cells from myeloma patient; ELISA; human; 1 µM, 192 h).
`CC(C)NCC(O)c1ccc(O)c(O)c1` (stereo not drawn) has a sarcomere length of 1.8 µm (mouse ventricular cardiomyocytes; dose not given, 0.255 s).
The inhibition of `CCOC(=O)c1ccc(-c2nn(Cc3ccccc3)c3ccccc23)o1` is reported as 35% (RBE; cell viability; 46 µM).
With `Cc1cnc(NC2CCOCC2)nc1-n1cnc(C(=O)NC(CN)c2cc(F)cc(Cl)c2)c1` (stereo not drawn) the sub-G0 cells was 1.1% (Rec1; flow cytometry; 1 µM, 48 h).
With `COc1cnc2cccc(N3CCc4c(cc(Cn5ccnc5C)cc4-c4cn(C)nc4C(F)(F)F)C3=O)c2c1` the EC50 was 504 nM (ASPC1; cell growth, inhibitor; 120 h).
`COc1ccc(NC(=S)N/N=C/c2cccc3cc4ccccc4nc23)cc1` — result for “G1 phase cells”: 57.4 ± 0.7% (HeLa; PI flow cytometry; IC25, 48 h).
Under “fractional funny current”, `CCN(CC)CCCC(C)Nc1ccnc2cc(Cl)ccc12` (stereo not drawn) is recorded as 0.99 and 0.96 (hiPSC-derived cardiomyocytes; If current, perforated patch clamp; 5 µM; baseline: initial current).
`C=Cc1c2[n-]c(c1C)/C=c1\[n-]/c(c(C)c1C=C)=C\c1[n-]c(c(CCC(=O)O)c1C)/C=c1\[n-]c(c(C)c1CCC(=O)O)=C2.[Sn+4]` has a fold change of 4.52 (SH-SY5Y; RNA-seq, measured: CMKLR1 mRNA; 5 µM, 5 h; baseline: untreated cells).
`NC(=O)NOCCCCCCCCCCCCCCCC[P+](c1ccccc1)(c1ccccc1)c1ccccc1.O=C([O-])C(F)(F)F` gave a cell confluence of 5.35% (HCT-116; cell growth, live-cell imaging; 3 µM, control at 90% confluence).
`c1ccc2[nH]ccc2c1` — result for “mRNA level, LS mean”: 45.7 counts per million (HCT-8; RNA-seq, measured: SLC16A14; concentration not given).
With `NC(=O)NOCCCCCCCCCCCCCC[P+](c1ccccc1)(c1ccccc1)c1ccccc1.O=C([O-])C(F)(F)F` the cell confluence was 3.42% (HCT-116; cell growth, live-cell imaging; 3 µM, control at 90% confluence).
`Cc1ccc2[nH]c(CSc3nnc(NC(=O)c4ccccc4C)s3)cc(=O)c2c1`: protein level “decreased” (BV-2; measured: caspase-8; 30 nM, together with: high glucose; baseline: high glucose).
Under “log2 fold change”, `Cn1cc(-c2ccc(-c3cncc(Cl)c3N3CCC4(CCNC4=O)CC3)cc2)cn1` is recorded as 5.36 (COLO 205; gene expression, microarray, measured: BHLHE41 mRNA; concentration not given, 2 h; baseline: untreated cells).
Under “log2 fold change”, `CCCCc1nc(Cl)c(CO)n1Cc1ccc(-c2ccccc2-c2nn[nH]n2)cc1` is recorded as 2.01 (human PBMC; RNA-seq, measured: OPRD1 mRNA; 10 µg/mL, 24 h; baseline: untreated control).
`C[C@H](Nc1ccc2c(c1)OCCn1cc(N3C(=O)OC[C@H]3C(F)F)nc1-2)C(N)=O` — result for “Hill coefficient GR curve”: 1.23 (EFM-19; cell growth, CellTiter-Glo; 120 h).
`CCCCN1C[C@H](O)[C@@H](O)[C@@H](O)[C@H]1CO` gave an IC50 of 21200 nM (sample H patient fibroblasts; Gb3 level lowering, LC-MS/MS, measured: Gb3 d18:1/24:1; 216 h).
Under “late apoptotic and necrotic cells”, `C=Cc1c(C)c2cc3nc(c(CC(=O)O)c4[nH]c(cc5nc(cc1[nH]2)C(C)=C5CC)c(C)c4C(=O)O)[C@@H](CCC(=O)O)[C@@H]3C` is recorded as 26.5% and 27.3% and 27.9% (4T1; Annexin V-FITC/PI flow cytometry; concentration not given).
With `CC(=O)c1nn(-c2ccc(Cl)cc2)/c(=N/N=C(\C)c2ccc(NC(=O)c3ccc(C)cc3)cc2)s1` the toxicity was 94.8% (MCF7; 10 µM).
`Nc1ncnc2c1ncn2[C@@H]1O[C@H](CO)[C@@H](O)[C@H]1O` — result for “log2 fold change”: 1.7 and 0.8 and 0.7 (activated human T cells; measured: adenine; 50 µM; baseline: DMSO).
The EC50 of `CCn1cc(-c2cc(Cn3ccoc3=N)cc3c2CCN([C@@H](C)c2cc(OC)ccn2)C3=O)c(C(F)(F)F)n1` is reported as 5130 nM (TEN; cell growth; 120 h).
`Cc1ccc(Cn2nc(-c3ccc(CO)o3)c3ccccc32)cc1` gave an IC50 of 1680 nM (RBE; cell viability, CellTiter-Glo).
`COc1ccc(-n2nc(C(C)=O)s/c2=N\N=C(/C)c2ccc(NC(=O)c3ccccc3)cc2)cc1` gave a toxicity of 97.3% (MCF7; 1.25 µM).
`CC(C)C[C@@H]1NC(=O)[C@H](CC(C)C)NC(=O)[C@H](Cc2c[nH]c3ccccc23)NC(=O)[C@H](CO)NC(=O)[C@H](Cc2c[nH]c3ccccc23)NC(=O)[C@@H]2CCCN2C(=O)[C@H](CC(C)C)NC(=O)[C@H](Cc2c[nH]cn2)NC(=O)[C@@H]2CCCN2C(=O)[C@H](CC(N)=O)NC(=O)[C@H](C)NC(=O)[C@H](Cc2ccc(O)cc2)NC(=O)[C@H](CS)NC(=O)[C@H](CCCCNC(=O)CN2CCN(CC(=O)O)CCN(CC(=O)O)CCN(CC(=O)O)CC2)NC1=O` [lutetium-177 labelled] has a dead cells of 56.2% (4T1; flow cytometry; 0.4 Bq/cell, 72 h).
